Published values gathered from unrelated publications.
UCHL1: Ubiquitin carboxyl-terminal hydrolase isozyme L1 (UCHL1, Homo sapiens, UniProt P09936)
Chain of UniProt P09936 (whole entry, looked up): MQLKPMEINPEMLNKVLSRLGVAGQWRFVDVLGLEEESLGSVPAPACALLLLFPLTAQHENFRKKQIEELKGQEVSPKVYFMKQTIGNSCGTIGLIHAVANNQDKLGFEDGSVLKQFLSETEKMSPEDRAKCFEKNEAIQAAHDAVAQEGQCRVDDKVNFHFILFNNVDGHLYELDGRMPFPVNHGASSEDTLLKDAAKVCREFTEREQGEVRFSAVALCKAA

COC(=O)N[C@@H](C)CNc1nccc(-c2cn(C(C)C)nc2-c2cc(Cl)cc(NS(C)(=O)=O)c2F)n1 — AUC(0-last) (human, plasma; oral, 50 mg, with: posaconazole 400 mg twice daily; geometric mean): 5790 ng·h/mL
Nc1c2c(cc3c1CCC3)CCC2 — AUC(0-last) (human, plasma; oral, 150 mg of GDC-2394, single ascending dose): 133 ng·h/mL
O=C1CC[C@H](N2Cc3cc(N4CCN(CC5CCN(c6ccc([C@@H]7c8ccc(O)cc8CC[C@@H]7c7ccccc7)cc6)CC5)CC4)ccc3C2=O)C(=O)N1 — AUC(0-last) (human, plasma; oral, 200 mg, with: rosuvastatin 10 mg): 15400 ng·h/mL
Cc1cc(C)c(CNC(=O)c2cc(Cl)c3c(c2C)O[C@@](C)([C@H]2CC[C@H](N(C)C)CC2)O3)c(=O)[nH]1 — AUC(0-last) (human, NHL patients, plasma; oral, 200 mg/day, cycle 1 day 1, once daily): 12400 ng·h/mL
O=C(/C=C/CN1CCCCC1)Nc1cc2c(Nc3ccc(F)c(Cl)c3)ncnc2cc1O — AUC(0-last) (human, plasma; oral, 30 mg): 317 ng·h/mL
O=C(c1nc2n(n1)[C@H](c1ccccc1)C[C@@H]2F)C1CC1 — AUC(0-last) (geometric LS mean; human, high-fat meal, plasma; oral, 75 mg single dose): 13000 ng·h/mL
CC(C)NC(=O)COc1cccc(-c2nc(Nc3ccc4[nH]ncc4c3)c3ccccc3n2)c1 — AUC(0-last) (human male, plasma; oral, 200 mg, day 6, fed, alone, geometric mean): 9710 ng·h/mL
Cn1c(=O)oc2ccc(-c3ccc(C[C@@H](C#N)NC(=O)[C@@H]4CNCCCO4)cc3)cc21 — AUC(0-last) (human, moderate renal impairment, plasma; oral, 25 mg single dose, mean): 4450 ng·h/mL
CC(C)n1nc(-c2ccc3oc(N)nc3c2)c2c(N)ncnc21 — AUC(0-last) (human, plasma; oral, 20 mg once weekly, cycle 1 day 15): 1660 ng·h/mL
CN1CC[C@@H](c2c(O)cc(O)c3c(=O)cc(-c4ccc(C(F)(F)F)cc4Cl)oc23)[C@@H]1CO — AUC(0-last) (noncompartmental; human patients, plasma; oral, 100 mg continuous, cycle 1, after day 1): 2220 ng·h/mL
COc1ncc(-c2nc3c(n2C(C)C)[C@H](c2ccc(Cl)cc2)N(c2cc(Cl)cn(C)c2=O)C3=O)c(OC)n1 — AUC(0-last) (LC-MS/MS; human, plasma; oral, 15 mg, cycle 1 day 14, low-dose arm): 689 ng·h/mL
N#CCNC(=O)c1ccc(-c2ccnc(Nc3ccc(N4CCOCC4=O)cc3)n2)cc1 — AUC(0-last) (healthy human volunteers, plasma; 200 mg momelotinib, day 1, fasted, momelotinib alone): 3910 ng·h/mL
Cc1noc(C)c1-c1cc(C(O)(c2ccccn2)c2ccccn2)c2nc(C3CC3)[nH]c2c1 — AUC(0-last) (human patients, fasted, plasma; oral, 3 mg once daily, cycle 1 day 15, with: enzalutamide once daily): 653 ng·h/mL
Cc1cc(C)c(CNC(=O)c2cc(Cl)c3c(c2C)O[C@@](C)([C@H]2CC[C@H](N(C)C)CC2)O3)c(=O)[nH]1 — AUC(0-last) (human, plasma; oral, 200 mg [14C] single dose): 13600 ng·h/mL
Cn1nc2c(=O)n(C3CC3)cnc2c1[C@](O)(c1cnc(C(F)(F)F)c(Cl)c1)C(F)(F)F — AUC(0-last) (infected humanized SCID mice, blood; 1 mg/kg daily, 6 days): 51.4 µM·h
CC#CC(=O)NC1CCCN(C(=O)c2ccc(F)cc2Cl)C1 (centres unmarked) — labelling (UCHL1; covalent, intact protein LC-MS; 12.5 µM): 10.3%
C=CC(=O)N(C)CCOc1c(N)ncnc1-c1cc(F)cc(NC(=O)c2ccc(C3CC3)cc2F)c1C — AUC(0-last) (human, fed, whole blood; oral, 60 mg single dose, food effect crossover, adjusted geometric mean): 224 ng·h/mL
C=CC(=O)N1CCC(Oc2cc3c(Nc4ccc(Cl)c(Cl)c4F)ncnc3cc2OC)CC1 — AUC(0-last) (human, fasted, plasma; oral, 16 mg, geometric mean): 482 ng·h/mL
CN(C)C(=O)c1cc2cnc(Nc3ccc(N4CCNCC4)cn3)nc2n1C1CCCC1 — AUC(0-last) (human, normal renal function, plasma; oral, 400 mg, single dose, geometric mean): 4030 ng·h/mL
CC(F)(F)c1cc(F)ccc1-c1sc2cc(O)ccc2c1Oc1ccc(/C=C/C(=O)O)cc1 — AUC(0-last) (human, serum; oral, 600 mg once daily, cycle 1 day 28, fasted, mean): 26900 ng·h/mL
C[C@H]1CN(C(=O)CC#N)[C@]12CCN(c1ncnc3[nH]ccc13)C2 — AUC(0-last) (healthy adult humans, plasma; oral, 1.5 mg single, geometric mean): 19.4 ng·h/mL
N#CCNC(=O)c1ccc(-c2ccnc(Nc3ccc(N4CCOCC4)cc3)n2)cc1 — AUC(0-last) (healthy human volunteers, plasma; oral, dose not given, day 12, without rifampin): 2580 ng·h/mL
CCOc1c([C@H](C)n2nc(C)c3c(N)ncnc32)cc(Cl)c(F)c1[C@@H]1CNC(=O)C1 — AUC(0-last) (human patients, plasma; oral, 5 mg once daily, cycle 1 day 15): 7.13 µM·h
CO[C@H]1C[C@@H]2CC[C@@H](C)[C@@](O)(O2)C(=O)C(=O)N2CCCC[C@H]2C(=O)O[C@H]([C@H](C)C[C@@H]2CC[C@@H](OC(=O)NCCOCCOCCOCCOCCOCCOCCOCCOCCC(=O)N3CCc4cc(Cn5nc(-c6ccc7oc(N)nc7c6)c6c(N)ncnc65)ccc4C3)[C@H](OC)C2)C[C@@H](O)[C@H](C)/C=C(\C)[C@@H](O)[C@@H](OC)C(=O)[C@H](C)C[C@H](C)/C=C/C=C/C=C/1C — AUC(0-last) (human patients, plasma; intravenous, 10 mg, cycle 1 day 15, 1 h infusion): 0.391 µM·h
Cc1cc(Nc2cc3ncccc3c(N[C@@H]3C[C@H]4CC[C@@H](C3)N4CCC#N)n2)n[nH]1 — AUC(0-last) (human, plasma; 300 mg single dose, mean): 25.6 ng·h/mL
Cn1cc(-c2cn3nccc3c(-c3cnn([C@]4(CC#N)C[C@@H](C#N)C4)c3)n2)cn1 — AUC(0-last) (healthy human fasted; 1600 mg single dose): 9920 ng·h/mL
C[C@@H](N)c1cc(Cl)ccc1Cn1c(=S)[nH]c(=O)c2[nH]ccc21 — AUC(0-last) (human, both sexes, matched healthy controls, plasma; oral, 2.5 mg single dose, geometric mean): 0.264 µM·h
C[C@@H](Oc1ccc(S(C)(=O)=O)cc1C(=O)N1C[C@@H]2C[C@]2(c2cc(C(F)(F)F)on2)C1)C(F)(F)F — AUC(0-last) (healthy human volunteers, fed, plasma; oral, 10 mg single, adjusted geometric mean): 4.61 µM·h
Cc1cc(C(=O)CCl)c(C)n1-c1cccc(Cl)c1 — labelling (UCHL1; covalent, intact protein LC-MS; 12.5 µM): 10.3%

Some of these lines once more:
C=CC(=O)N(C)CCOc1c(N)ncnc1-c1cc(F)cc(NC(=O)c2ccc(C3CC3)cc2F)c1C — AUC(0-last) (human, fed, whole blood; oral, 60 mg single dose, food effect crossover, adjusted geometric mean): 224 ng·h/mL
C=CC(=O)N1CCC(Oc2cc3c(Nc4ccc(Cl)c(Cl)c4F)ncnc3cc2OC)CC1 — AUC(0-last) (human, fasted, plasma; oral, 16 mg, geometric mean): 482 ng·h/mL
